Measured values from different studies.
A part holds a random share of what one study measured.
Sequence of UniProt P53671 (whole entry, looked up): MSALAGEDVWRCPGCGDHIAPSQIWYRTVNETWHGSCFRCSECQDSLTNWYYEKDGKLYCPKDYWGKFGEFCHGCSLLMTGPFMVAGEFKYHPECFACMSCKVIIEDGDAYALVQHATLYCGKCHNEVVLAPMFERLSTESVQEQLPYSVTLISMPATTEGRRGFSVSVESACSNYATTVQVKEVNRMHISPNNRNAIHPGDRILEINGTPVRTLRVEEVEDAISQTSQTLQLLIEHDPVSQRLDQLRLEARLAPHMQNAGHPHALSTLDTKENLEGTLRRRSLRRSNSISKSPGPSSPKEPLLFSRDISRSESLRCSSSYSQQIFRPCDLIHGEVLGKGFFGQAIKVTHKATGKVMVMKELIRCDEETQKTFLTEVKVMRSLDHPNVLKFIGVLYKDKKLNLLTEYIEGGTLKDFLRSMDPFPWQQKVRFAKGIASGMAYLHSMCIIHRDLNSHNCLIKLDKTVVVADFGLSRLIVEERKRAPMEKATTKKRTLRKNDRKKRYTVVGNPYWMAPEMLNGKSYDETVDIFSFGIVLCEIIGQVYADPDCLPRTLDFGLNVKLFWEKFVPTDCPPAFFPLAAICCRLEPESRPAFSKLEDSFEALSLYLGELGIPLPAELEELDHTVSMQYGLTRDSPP
Sequence of UniProt Q9BYP7 (whole entry, looked up): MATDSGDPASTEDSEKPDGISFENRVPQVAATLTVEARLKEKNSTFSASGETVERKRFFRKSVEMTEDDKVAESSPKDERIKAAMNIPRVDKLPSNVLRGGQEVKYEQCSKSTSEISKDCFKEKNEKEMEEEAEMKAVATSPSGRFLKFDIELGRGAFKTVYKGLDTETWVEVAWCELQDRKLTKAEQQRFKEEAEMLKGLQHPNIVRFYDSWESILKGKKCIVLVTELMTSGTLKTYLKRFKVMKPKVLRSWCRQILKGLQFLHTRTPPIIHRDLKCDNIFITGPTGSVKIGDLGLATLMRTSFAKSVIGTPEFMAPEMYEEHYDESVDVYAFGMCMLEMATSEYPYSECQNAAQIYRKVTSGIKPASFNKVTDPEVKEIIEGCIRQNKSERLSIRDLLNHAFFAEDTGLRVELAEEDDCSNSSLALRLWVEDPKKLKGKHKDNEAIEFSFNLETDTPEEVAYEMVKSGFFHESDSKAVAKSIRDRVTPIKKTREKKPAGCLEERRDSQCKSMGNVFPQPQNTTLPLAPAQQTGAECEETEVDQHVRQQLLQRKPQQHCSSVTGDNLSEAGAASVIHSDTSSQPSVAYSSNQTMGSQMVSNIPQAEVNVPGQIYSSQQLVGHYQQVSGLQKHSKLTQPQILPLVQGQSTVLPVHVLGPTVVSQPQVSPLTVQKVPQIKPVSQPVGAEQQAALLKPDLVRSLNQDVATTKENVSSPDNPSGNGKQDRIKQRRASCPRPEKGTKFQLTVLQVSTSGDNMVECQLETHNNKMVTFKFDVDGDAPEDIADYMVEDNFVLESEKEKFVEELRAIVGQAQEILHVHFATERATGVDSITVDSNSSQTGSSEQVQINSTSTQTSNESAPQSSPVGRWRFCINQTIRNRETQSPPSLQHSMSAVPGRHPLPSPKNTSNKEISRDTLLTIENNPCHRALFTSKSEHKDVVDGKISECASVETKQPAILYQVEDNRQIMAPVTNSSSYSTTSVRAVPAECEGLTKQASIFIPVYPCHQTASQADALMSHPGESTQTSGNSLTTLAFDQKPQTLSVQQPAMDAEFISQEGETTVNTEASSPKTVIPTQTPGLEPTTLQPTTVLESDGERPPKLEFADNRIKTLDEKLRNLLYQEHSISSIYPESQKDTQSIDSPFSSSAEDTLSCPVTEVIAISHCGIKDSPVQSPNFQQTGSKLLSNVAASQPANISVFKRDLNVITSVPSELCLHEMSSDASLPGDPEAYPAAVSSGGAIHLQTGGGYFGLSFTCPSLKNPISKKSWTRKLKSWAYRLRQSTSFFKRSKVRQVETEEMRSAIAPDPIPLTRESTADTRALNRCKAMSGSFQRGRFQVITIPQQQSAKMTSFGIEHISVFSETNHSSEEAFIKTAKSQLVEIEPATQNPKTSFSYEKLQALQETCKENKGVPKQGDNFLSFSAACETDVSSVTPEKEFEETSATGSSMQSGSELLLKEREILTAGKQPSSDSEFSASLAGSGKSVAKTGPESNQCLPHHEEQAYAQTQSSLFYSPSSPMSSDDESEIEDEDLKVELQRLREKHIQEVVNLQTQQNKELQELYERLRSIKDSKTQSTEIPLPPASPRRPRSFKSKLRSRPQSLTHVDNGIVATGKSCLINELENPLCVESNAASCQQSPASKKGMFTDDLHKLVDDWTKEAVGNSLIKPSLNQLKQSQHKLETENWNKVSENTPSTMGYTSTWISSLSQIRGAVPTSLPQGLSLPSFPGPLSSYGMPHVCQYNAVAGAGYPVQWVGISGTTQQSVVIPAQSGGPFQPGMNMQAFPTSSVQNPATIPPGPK

Series 1 — cell line: A-375; tested at: 100 µM; time: 18 h; endpoint: viability
O=C(O)c1ccc[n+]([O-])c1: 109%
O=C1[C@@H]2[C@H]3CC[C@H](C3)[C@@H]2C(=O)N1C[C@@H]1CCCC[C@H]1CN1CCN(c2nsc3ccccc23)CC1: 96.7%
Cc1cccc(C)c1NC(=O)c1ccccc1C(=O)O: 99%
CC(C)[C@H](NC(=O)[C@H](CC(=O)O)NC(=O)[C@H](CCCCN)NC(=O)[C@@H](N)CCCN=C(N)N)C(=O)N[C@@H](Cc1ccc(O)cc1)C(=O)O: 96.7%
C=CC(=O)Nc1cccc(Nc2nc(Nc3ccc(N4CCN(C(C)=O)CC4)cc3OC)ncc2C(F)(F)F)c1: 14.5%
Cn1c(=O)c2c(ncn2CCO)n(C)c1=O: 88.3%
CCOC(=O)[N-]c1cn(N2CCOCC2)n[o+]1: 104%

Series 2 — observed: cell-free assay; method: competition with immobilised ligand; tested at: 1 µM; endpoint: remaining binding
SMILES: CO[C@H]1CC[C@H](CNc2ccc(S(=O)(=O)NC(=O)c3ccc(N4CCN(CC5=C(c6ccc(Cl)cc6)CC(C)(C)CC5)CC4)cc3Oc3cnc4[nH]ccc4c3)cc2[N+](=O)[O-])CC1
PIK3CA (Homo sapiens, UniProt P42336, E542K): 94%
CDC42BPB (Homo sapiens, UniProt Q9Y5S2): 100%
MET (Homo sapiens, UniProt P08581, M1250T): 96%
Tyrosine-protein kinase ABL1, non-phosphorylated (ABL1, Homo sapiens, UniProt P00519, F317L): 100%
LIM domain kinase 2 (LIMK2, Homo sapiens, UniProt P53671): 80%
MET (Homo sapiens, UniProt P08581, Y1235D): 92%
WNK3 (Homo sapiens, UniProt Q9BYP7): 100%

Series 3 — observed: enzyme activity; mode: inhibitor; tested at: 10 µM; endpoint: inhibition
Target: Calcium/calmodulin-dependent protein kinase type II subunit alpha (CAMK2A, Homo sapiens, UniProt Q9UQM7)
Sequence of UniProt Q9UQM7 (whole entry, looked up): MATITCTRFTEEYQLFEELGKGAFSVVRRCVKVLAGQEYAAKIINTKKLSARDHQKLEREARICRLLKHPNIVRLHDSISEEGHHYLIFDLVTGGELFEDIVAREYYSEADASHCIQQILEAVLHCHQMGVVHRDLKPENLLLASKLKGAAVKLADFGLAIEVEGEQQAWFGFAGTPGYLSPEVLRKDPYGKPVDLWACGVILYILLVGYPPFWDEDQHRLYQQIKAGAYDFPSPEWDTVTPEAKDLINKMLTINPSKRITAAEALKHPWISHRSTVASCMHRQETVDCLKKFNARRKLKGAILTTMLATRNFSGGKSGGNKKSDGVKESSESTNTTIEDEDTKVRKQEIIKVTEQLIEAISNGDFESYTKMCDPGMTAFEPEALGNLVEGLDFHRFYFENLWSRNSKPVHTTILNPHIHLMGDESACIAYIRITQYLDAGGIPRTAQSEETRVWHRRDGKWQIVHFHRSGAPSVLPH
CC1CNc2c(cccc2S(=O)(=O)N[C@@H](CCCN=C(N)N)C(=O)N2CC[C@@H](C)C[C@@H]2C(=O)O)C1 (some centres unmarked): -3%
CCCCC[C@H](CC(=O)NO)C(=O)N[C@H](C(=O)N1CCC[C@H]1CO)C(C)C: -18%
COC(=O)[C@@H](N)Cc1ccc(O)cc1: -13%
COc1cc(O)c(C(=O)/C=C/c2ccc(O)cc2)c(OC)c1: 25%
COC(=O)CCC(=O)CN: 8%
COC(=O)C1=C(O)c2ccccc2C(=O)[C@]1(CC=C(C)C)C1=CC(=O)c2ccccc2C1=O: 19%
CC(C)=CCC/C(C)=C/CO: -4%

Series 4 — observed: enzyme activity; mode: inhibitor; tested at: 0.5 µM; relative to: control; endpoint: remaining activity
Target: Tyrosine-protein kinase ABL2 (ABL2, Homo sapiens, UniProt P42684)
Sequence of UniProt P42684 (whole entry, looked up): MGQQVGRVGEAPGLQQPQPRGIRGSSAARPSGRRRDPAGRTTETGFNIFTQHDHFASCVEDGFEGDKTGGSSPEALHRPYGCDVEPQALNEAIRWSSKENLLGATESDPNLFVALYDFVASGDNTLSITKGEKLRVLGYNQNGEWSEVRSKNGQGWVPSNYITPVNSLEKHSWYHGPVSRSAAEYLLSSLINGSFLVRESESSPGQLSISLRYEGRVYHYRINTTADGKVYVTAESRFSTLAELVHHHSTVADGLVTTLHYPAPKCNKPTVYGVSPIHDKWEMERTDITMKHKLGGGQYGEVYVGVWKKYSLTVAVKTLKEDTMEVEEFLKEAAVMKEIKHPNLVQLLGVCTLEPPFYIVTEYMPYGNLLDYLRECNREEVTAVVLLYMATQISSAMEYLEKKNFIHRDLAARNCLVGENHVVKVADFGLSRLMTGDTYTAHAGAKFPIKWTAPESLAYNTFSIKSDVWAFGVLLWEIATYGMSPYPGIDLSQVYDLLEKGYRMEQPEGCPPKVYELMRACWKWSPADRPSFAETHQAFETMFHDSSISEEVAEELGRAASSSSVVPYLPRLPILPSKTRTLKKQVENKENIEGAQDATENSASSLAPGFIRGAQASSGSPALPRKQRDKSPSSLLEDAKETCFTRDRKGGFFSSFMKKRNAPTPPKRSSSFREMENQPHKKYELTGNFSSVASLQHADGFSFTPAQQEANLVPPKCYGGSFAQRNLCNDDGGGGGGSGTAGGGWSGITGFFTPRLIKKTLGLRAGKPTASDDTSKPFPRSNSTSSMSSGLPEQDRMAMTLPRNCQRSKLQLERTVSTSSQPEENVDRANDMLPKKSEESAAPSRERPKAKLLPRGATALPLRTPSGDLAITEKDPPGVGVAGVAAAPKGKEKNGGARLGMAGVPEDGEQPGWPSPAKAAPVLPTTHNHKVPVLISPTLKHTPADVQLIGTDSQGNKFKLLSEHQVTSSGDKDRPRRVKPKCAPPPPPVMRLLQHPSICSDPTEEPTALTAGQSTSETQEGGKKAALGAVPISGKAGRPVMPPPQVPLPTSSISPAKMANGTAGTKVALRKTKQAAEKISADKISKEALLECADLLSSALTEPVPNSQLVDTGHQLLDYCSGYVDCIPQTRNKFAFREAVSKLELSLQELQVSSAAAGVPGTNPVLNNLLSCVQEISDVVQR
CNC(=O)c1cc(Oc2ccc(NC(=O)Nc3ccc(Cl)c(C(F)(F)F)c3)cc2)ccn1: 99.4%
COc1ccc(C(=O)Nc2sc3c(c2C(N)=O)CCCC3)cc1OC: 101%
COc1cc2ncnc(Nc3ccc(Oc4ccccc4)cc3)c2cc1OC: 96.4%
O=C(O)c1ccc2c3c1cccc3c(=O)n1c3ccccc3nc21: 100%
O=C(CCCc1ccc(-c2ccccc2F)cc1)Nc1ccc(O)cc1: 95.3%
O=S(=O)(c1cccc2cnccc12)N1CCCNCC1: 87.6%
OCC(O)CCON=C1C(c2c(O)[nH]c3ccccc23)=Nc2ccccc21 (centres unmarked): 38.5%
COc1cc2nccc(Oc3ccc(NC(=S)NC(=O)c4ccccc4C)cc3)c2cc1OC: 74.1%
NCCNc1ncc(C(N)=O)c(Nc2cccc(C(F)(F)F)c2)n1: 88.7%
O=C1NC(=O)C(c2cn(CCCn3ccnc3)c3ccccc23)=C1Nc1ccccc1: 91.8%
Nc1ccc2ncnc(NCCc3ccc(Oc4ccccc4)cc3)c2c1: 102%
CO[C@H]1C[C@@H]2CC[C@@H](C)[C@@](O)(O2)C(=O)C(=O)N2CCCC[C@H]2C(=O)O[C@H]([C@H](C)C[C@@H]2CC[C@@H](O)[C@H](OC)C2)CC(=O)[C@H](C)/C=C(\C)[C@@H](O)[C@@H](OC)C(=O)[C@H](C)C[C@H](C)/C=C/C=C/C=C/1C: 94.2%
O=C(Nc1cccc(Nc2cc(Nc3cccc(C(F)(F)F)c3)ncn2)c1)C1CC1: 100%
Cc1ccc(NC(=O)c2ccc(CN3CCN(C)CC3)cc2)cc1Nc1nc(-c2cccnc2)cs1: 57.7%
COc1cc2ncnc(Nc3ccc(F)c(Cl)c3)c2cc1OCCCN1CCOCC1: 72%
Cc1ccc(Nc2nccc(N(C)c3ccc4c(C)n(C)nc4c3)n2)cc1S(N)(=O)=O: 38.5%
Cn1sc(=O)n(Cc2ccccc2)c1=O: 96.7%
Cc1nc(-c2ccccc2)c(-c2ccncc2)o1: 92.8%
Oc1ccc(-c2nc(-c3ccncc3)c(-c3ccc(F)cc3)[nH]2)cc1: 91.1%
O=c1c2ccccc2[nH]c(=S)n1CCN1CCC(=C(c2ccc(F)cc2)c2ccc(F)cc2)CC1: 103%
